Published values gathered from unrelated publications.
Numbers after ± are the reported error.
Cell line: HCT-116

SMILES | effect on | technique | medium | time | setting | IC50
NC(=S)NNC(=O)c1cc2ccc(O)cc2oc1=O | cell growth or viability | SRB | – | 72 h | – | 7.5 µM
Cc1ccc2nc(NC(=O)Cn3cc(COc4ccc(/C=N/Nc5cc([N+](=O)[O-])cc([N+](=O)[O-])c5)cc4)nn3)sc2c1 | cell growth or viability | MTT | – | 48 h | – | 167 µM
CCCCCCCCSc1nc(N)c2c(F)c(C#N)c(F)c(Cl)c2n1 | cell growth or viability | MTT | – | 96 h | – | > 100 µM
O=C(COC(=O)CCCn1c(=O)oc2cc([N+](=O)[O-])ccc21)Nc1cccc(Cl)c1 | cell growth or viability | MTT | – | 36 h | – | 77.3 µM
O=C(CCCCCCN1CCN(c2ccc(Nc3ncc(F)c(-c4cn(C5CCCC5)nn4)n3)cc2)CC1)NO | cell growth or viability | SRB | – | 72 h | – | 2.07 µM
OC[C@H]1[C@@H](O)[C@@H](O)CN1CCc1ccccc1 | cell growth or viability | MTS | – | 72 h | – | > 200 µM
CN1CCN(c2ccc(Nc3nccc(-c4cn(C5CCCC5)nn4)n3)cc2)CC1 | cell growth or viability | SRB | – | 72 h | – | 6.68 µM
O=C(NCCCCCNc1n[n+]([O-])c2ccccc2[n+]1[O-])C(F)(F)F | cytotoxicity | MTT | – | 24 h | hypoxia | 44.1 µM
COC(=O)[C@H](CC(C)C)NC(=O)CNC(=O)CCn1nc(Cc2ccccc2)c2ccccc2c1=O | cell growth or viability | MTT | – | 48 h | – | 48.7 µM
Cc1cc(C)c(N=[C](NCc2ccc(N)cc2)[AuH][Cl])c(C)c1 | cell growth or viability | – | – | – | – | > 100 µM
CO[C@@H]1[C@@H](O[C@@H]2O[C@H](C)[C@@H](O[C@H]3C[C@@](C)(O)[C@@H](OC(=O)c4ccc(C(C)(C)C)cc4)[C@H](C)O3)[C@H](N(C)C)[C@H]2O)[C@@H](CC=O)C[C@@H](C)[C@@H](O[C@H]2CC[C@H](N(C)C)[C@@H](C)O2)/C=C/C=C/C[C@@H](C)OC(=O)C[C@H]1O | cell growth or viability | CCK-8 | – | 72 h | – | 4.78 µM
CCOC(=O)C/C(C)=N/NC(=O)c1nc2ccccc2n(C)c1=O | cell growth or viability | MTT | – | 48 h | – | 13 µM
CCCCSc1nc(N)c2c(F)c(C#N)c(F)c(F)c2n1 | cell growth or viability | MTT | – | 96 h | – | 6.32 µM
CC(=O)c1ccc(NC(=O)CCc2nc3cc(Cl)ccc3[nH]c2=O)cc1 | cell growth or viability | MTT | – | – | – | 84.5 µM
COCCOCCSc1nc(N)c2c(F)c(C#N)c(F)c(F)c2n1 | cell growth or viability | MTT | – | 96 h | – | 5.55 µM
COc1ccc2c(c1)OCc1c-2oc2cc3c(cc12)OCO3 | cell growth or viability | MTT | – | 72 h | – | 27 µM
Cc1nc2ccccc2c(=O)n1N | cytotoxicity | LDH release | – | 24 h | 50% viability reduction | 531 ± 16.1 µM
O=C(NCCCCCCNc1n[n+]([O-])c2ccccc2[n+]1[O-])C(F)(F)F | cytotoxicity | MTT | – | 24 h | normoxia | 110 ± 2.2 µM
CO[C@@H]1[C@@H](O[C@@H]2O[C@H](C)[C@@H](O[C@H]3C[C@@](C)(O)[C@@H](OC(=O)/C=C/c4ccc(C(F)(F)F)cc4)[C@H](C)O3)[C@H](N(C)C)[C@H]2O)[C@@H](CC=O)C[C@@H](C)[C@@H](O[C@H]2CC[C@H](N(C)C)[C@@H](C)O2)/C=C/C=C/C[C@@H](C)OC(=O)C[C@H]1O | cell growth or viability | CCK-8 | – | 72 h | – | 2.36 µM
O=C(CN1C(=O)S/C(=C\c2ccccc2Br)C1=O)Nc1ccc(C(=O)Nc2ccc(F)cc2)cc1 | cell growth or viability | MTT | – | – | – | 29 µM
CN1CCC2(CC1)C/C(=N\NC(=O)Nc1ccccc1)c1ccccc1O2 | – | – | – | 48 h | – | 5.6 µM
Cc1ncc(COP(=O)(O)O)c(/C=N\NC(=O)Cn2c(=O)c(Cc3ccccc3)nc3ccccc32)c1O | cell growth or viability | MTT | – | 72 h | – | 0.123 µM
COc1cccc2c1C(=O)c1c(O)c3c(c(O)c1C2=O)CC(O)(C(=O)CO)CC3OC1CC(NC(=O)C[C@H](N)C(=O)O)C(O)C(C)O1 (stereo partly shown) | cell growth or viability | MTT | – | 48 h | – | < 10 µg/mL
CC(C)c1cccc(C(C)C)c1[N+]#[C][Pd-]([Cl])([Cl])=[C](Nc1ccc(CN[C](NC(C)(C)C)=[Au][Cl])cc1)Nc1c(C(C)C)cccc1C(C)C | cell growth or viability | – | – | – | – | 33 µM
CC(=O)OC[C@H]1O[C@@H](Sc2nc3c4cnn(C(=O)CNc5ccc(C)cc5)c4ncn3n2)[C@H](OC(C)=O)[C@@H](OC(C)=O)[C@H]1OC(C)=O | cell growth or viability | MTT | – | 48 h | – | 0.007 µM
CSc1nc(Nc2cccc(/C(C)=N/NC(=O)c3ccc(N)cc3)c2)c(C#N)c(-c2ccccc2)n1 | cell growth or viability | MTT | – | 48 h | – | 16.4 µM
O=C(NCCCNc1n[n+]([O-])c2ccccc2[n+]1[O-])C(F)(F)F | cytotoxicity | MTT | 10% FBS medium | 6 h + 18 h | hypoxia 3% O2 | 38.6 ± 8.1 µM
CCN1CCC2(CC1)C/C(=N\NC(=O)Nc1ccc(C)cc1)c1ccccc1O2 | – | – | – | 48 h | – | 21.3 ± 0.91 µM

SMILES | effect on | technique | medium | time | setting | IC50
Cc1cc(C)c([N+]#[C][Pd-]([Cl])([Cl])=[C](Nc2ccc(CN[C](NC(C)(C)C)=[Au][Cl])cc2)Nc2c(C)cc(C)cc2C)c(C)c1 | cell growth or viability | – | – | – | – | > 100 µM
C=C1C(=O)OC2CC3=C[C@@H](C/C(C)=C/C(OC(=O)Cc4cccc5ccccc45)[C@H]12)OC3=O (stereo partly shown) | cell growth or viability | MTT | – | 24 h | – | 0.14 µM
CO[C@@H]1[C@@H](O[C@@H]2O[C@H](C)[C@@H](O[C@H]3C[C@@](C)(O)[C@@H](OC(=O)CN(C)C)[C@H](C)O3)[C@H](N(C)C)[C@H]2O)[C@@H](CC=O)C[C@@H](C)[C@@H](O[C@H]2CC[C@H](N(C)C)[C@@H](C)O2)/C=C/C=C/C[C@@H](C)OC(=O)C[C@H]1O | cell growth or viability | CCK-8 | – | 72 h | – | > 50 µM
Cc1cc(C)c([N+]#[C][Pt-2]([Cl])([Cl])[C]#[N+]c2c(C)cc(C)cc2C)c(C)c1 | cell growth or viability | – | – | – | – | 1 µM
COc1ccc(NC(=O)O[C@H]2[C@H](C)O[C@@H](O[C@H]3[C@H](N(C)C)[C@@H](O)[C@H](O[C@H]4[C@@H](CC=O)C[C@@H](C)[C@@H](O[C@H]5CC[C@H](N(C)C)[C@@H](C)O5)/C=C/C=C/C[C@@H](C)OC(=O)C[C@@H](O)[C@@H]4OC)O[C@@H]3C)C[C@@]2(C)O)cc1 | cell growth or viability | CCK-8 | – | 72 h | – | > 50 µM
COc1cc(C2COc3cc(O)cc(O)c3C2=NN)c(OC)cc1O (stereo not shown) | cell growth or viability | MTT | – | 72 h | – | 126 µM
Cc1cc(C)c([N+]#[C][Pt-]([Cl])([Cl])=[C](Nc2ccc(CN[C](Nc3c(C(C)C)cccc3C(C)C)=[Au][Cl])cc2)Nc2c(C)cc(C)cc2C)c(C)c1 | cell growth or viability | – | – | – | – | > 100 µM
COc1ccc(NC(=O)c2c(Nc3ccccc3)sc(C(=O)N/N=C/c3ccc(OC)c(OC)c3)c2NC(C)=O)cc1 | cell growth or viability | SRB | – | 48 h | – | 5.33 µM
CO[C@@H]1[C@@H](O[C@@H]2O[C@H](C)[C@@H](O[C@H]3C[C@@](C)(O)[C@@H](OC(=O)Cc4ccc(C(C)(C)C)cc4)[C@H](C)O3)[C@H](N(C)C)[C@H]2O)[C@@H](CC=O)C[C@@H](C)[C@@H](O[C@H]2CC[C@H](N(C)C)[C@@H](C)O2)/C=C/C=C/C[C@@H](C)OC(=O)C[C@H]1O | cell growth or viability | CCK-8 | – | 72 h | – | 2.24 µM
CC(C)c1cccc(C(C)C)c1[N+]#[C][Pt-]([Cl])([Cl])=[C](Nc1ccc(CN[C](NC(C)(C)C)=[Au][Cl])cc1)Nc1c(C(C)C)cccc1C(C)C | cell growth or viability | – | – | – | – | 12 µM
Cc1c(C)c(C)[c-](C)c1C.Cc1ccnc(-c2[c-]cccc2)c1.[Cl-].[Ir+3] | – | SRB | – | 24 h | 72 h recovery | 9.6 ± 0.6 µM
CN(C)CCCS(=O)(=O)NC12CCCC(C)(CCC3C1CC3(C)C)C2 (stereo not shown) | cell growth or viability | CCK-8 | – | 72 h | – | 28.1 µM
CSc1nc(Nc2ccc(/C(C)=N/NC(=O)c3ccc([N+](=O)[O-])cc3)cc2)c(C#N)c(-c2ccccc2)n1 | cell growth or viability | MTT | – | 48 h | – | 13.8 µM
CCC1=C(CC)C2=[N+]3C1=Cc1c(CC)c(CC)c4[n]1[Ir-3]31([C]#[N+]c3ccc(OC)cc3)([C]#[N+]c3ccc(OC)cc3)[n]3c(c(CC)c(CC)c3=CC3=[N+]1C(=C4)C(CC)=C3CC)=C2.F[B-](F)(F)F | cell growth or viability | MTT | – | 72 h | – | 23 µM
Cc1ccc(C(C)C)cc1.[Cl][Au].[Cl][Ru][Cl].c1ccc(P(CP(c2ccccc2)c2ccccc2)c2ccccc2)cc1 | cell growth or viability | trypan blue | – | 48 h | – | 4.6 µM
CCOC(=O)c1ccc(-n2cc(Cn3c(=O)c(Cc4ccccc4)nc4ccccc43)nn2)cc1 | cell growth or viability | MTT | – | 72 h | – | 0.123 µM
O=C(CCc1nc2cc(Cl)ccc2[nH]c1=O)NN1C(=O)c2ccccc2C1=O | cell growth or viability | MTT | – | – | – | 37.2 µM
CSC(=N/N=C(\C)c1ccc(S(=O)(=O)N2CCC(C)CC2)cc1)SC | cell growth or viability | MTT | – | – | – | 12.6 µM
CCCc1cc(O)nc(SCCOC(=O)[C@]2(C)CCC[C@]3(C)c4ccc(C(C)C)cc4CCC23)n1 (stereo partly shown) | cell growth or viability | MTT | – | 48 h | – | 9.53 µM
CCn1c(-c2ccccc2)cs/c1=N/N=C(\C)c1c(O)c2ccccc2oc1=O | cell growth or viability | MTT | – | 48 h | – | 9.9 µM
COC(=O)CNC(=O)COc1ccc2c(C)cc(=O)oc2c1 | cell growth or viability | MTT | – | – | – | 63.8 µM
CSc1nc(Nc2cccc(/C(C)=N/NC(=O)c3ccccc3)c2)c(C#N)c(-c2ccccc2)n1 | cell growth or viability | MTT | – | 48 h | – | 18 µM
O=C(NCCCCCCCCNc1n[n+]([O-])c2ccccc2[n+]1[O-])C(F)(F)F | cytotoxicity | MTT | – | 24 h | hypoxia | 50.5 µM
NC1=N[N+](=Cc2c3ccccc3cc3ccccc23)[Ga-3]23([S]1)([S]C(N)=N[N+]2=Cc1c2ccccc2cc2ccccc12)[S]C(N)=N[N+]3=Cc1c2ccccc2cc2ccccc12 | – | – | – | 48 h | – | 17.7 ± 2.2 µM
CSC(=NN=C(C)c1ccc(S(=O)(=O)N2CCC(C)CC2)cc1)N(C)C | cell growth or viability | MTT | – | – | – | 3.53 µM
O=c1[nH]c2ccccc2nc1/C=C/C=C/c1ccccc1 | cell growth or viability | MTT | – | 72 h | – | 12.7 µM
CC12CCCC(NS(=O)(=O)C3CCN(Cc4ccccc4)C3)(C1)C1CC(C)(C)C1CC2 (stereo not shown) | cell growth or viability | CCK-8 | – | 72 h | – | 40.6 µM

Repeated from above:
SMILES | effect on | technique | medium | time | setting | IC50
COC(=O)CNC(=O)COc1ccc2c(C)cc(=O)oc2c1 | cell growth or viability | MTT | – | – | – | 63.8 µM
CSc1nc(Nc2cccc(/C(C)=N/NC(=O)c3ccccc3)c2)c(C#N)c(-c2ccccc2)n1 | cell growth or viability | MTT | – | 48 h | – | 18 µM
O=C(NCCCCCCCCNc1n[n+]([O-])c2ccccc2[n+]1[O-])C(F)(F)F | cytotoxicity | MTT | – | 24 h | hypoxia | 50.5 µM
